{"data": "Published values pooled from the literature", "note": "Parts stem from different laboratories: compare values within a part only.", "sequence of UniProt Q9NRP7 (whole entry, looked up)": "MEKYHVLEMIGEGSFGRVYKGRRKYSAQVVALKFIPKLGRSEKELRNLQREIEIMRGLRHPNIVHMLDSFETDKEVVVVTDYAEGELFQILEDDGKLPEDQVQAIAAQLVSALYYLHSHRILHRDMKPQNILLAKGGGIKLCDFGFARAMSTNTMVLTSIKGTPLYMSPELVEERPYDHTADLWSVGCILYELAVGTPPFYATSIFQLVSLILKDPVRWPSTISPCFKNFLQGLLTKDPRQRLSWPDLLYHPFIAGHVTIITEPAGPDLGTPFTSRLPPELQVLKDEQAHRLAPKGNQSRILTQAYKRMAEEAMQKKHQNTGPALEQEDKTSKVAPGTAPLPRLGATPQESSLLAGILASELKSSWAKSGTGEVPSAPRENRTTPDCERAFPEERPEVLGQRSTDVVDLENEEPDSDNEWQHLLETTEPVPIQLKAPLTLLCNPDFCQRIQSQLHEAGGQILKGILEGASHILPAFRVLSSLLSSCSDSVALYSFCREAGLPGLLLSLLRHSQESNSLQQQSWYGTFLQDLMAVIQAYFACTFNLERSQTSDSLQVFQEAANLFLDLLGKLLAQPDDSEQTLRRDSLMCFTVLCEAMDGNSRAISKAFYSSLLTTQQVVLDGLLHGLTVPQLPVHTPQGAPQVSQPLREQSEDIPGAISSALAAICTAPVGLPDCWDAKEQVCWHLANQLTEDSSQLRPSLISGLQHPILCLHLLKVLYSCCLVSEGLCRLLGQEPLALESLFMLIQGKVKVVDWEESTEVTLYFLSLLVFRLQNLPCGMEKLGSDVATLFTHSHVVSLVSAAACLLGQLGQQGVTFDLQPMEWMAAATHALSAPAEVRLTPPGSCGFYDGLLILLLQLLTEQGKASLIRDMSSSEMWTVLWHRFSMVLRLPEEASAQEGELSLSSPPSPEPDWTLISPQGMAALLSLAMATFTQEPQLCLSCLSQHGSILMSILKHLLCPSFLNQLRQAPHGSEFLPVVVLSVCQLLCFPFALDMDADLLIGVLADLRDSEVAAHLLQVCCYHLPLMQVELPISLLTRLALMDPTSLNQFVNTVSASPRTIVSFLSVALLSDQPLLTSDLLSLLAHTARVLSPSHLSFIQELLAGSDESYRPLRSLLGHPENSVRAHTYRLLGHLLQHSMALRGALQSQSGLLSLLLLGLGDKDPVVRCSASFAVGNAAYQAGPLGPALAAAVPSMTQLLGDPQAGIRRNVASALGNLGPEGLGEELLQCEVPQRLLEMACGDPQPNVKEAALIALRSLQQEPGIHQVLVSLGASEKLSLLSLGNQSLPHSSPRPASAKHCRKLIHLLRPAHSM", "sequence of UniProt Q9NYL2 (whole entry, looked up)": "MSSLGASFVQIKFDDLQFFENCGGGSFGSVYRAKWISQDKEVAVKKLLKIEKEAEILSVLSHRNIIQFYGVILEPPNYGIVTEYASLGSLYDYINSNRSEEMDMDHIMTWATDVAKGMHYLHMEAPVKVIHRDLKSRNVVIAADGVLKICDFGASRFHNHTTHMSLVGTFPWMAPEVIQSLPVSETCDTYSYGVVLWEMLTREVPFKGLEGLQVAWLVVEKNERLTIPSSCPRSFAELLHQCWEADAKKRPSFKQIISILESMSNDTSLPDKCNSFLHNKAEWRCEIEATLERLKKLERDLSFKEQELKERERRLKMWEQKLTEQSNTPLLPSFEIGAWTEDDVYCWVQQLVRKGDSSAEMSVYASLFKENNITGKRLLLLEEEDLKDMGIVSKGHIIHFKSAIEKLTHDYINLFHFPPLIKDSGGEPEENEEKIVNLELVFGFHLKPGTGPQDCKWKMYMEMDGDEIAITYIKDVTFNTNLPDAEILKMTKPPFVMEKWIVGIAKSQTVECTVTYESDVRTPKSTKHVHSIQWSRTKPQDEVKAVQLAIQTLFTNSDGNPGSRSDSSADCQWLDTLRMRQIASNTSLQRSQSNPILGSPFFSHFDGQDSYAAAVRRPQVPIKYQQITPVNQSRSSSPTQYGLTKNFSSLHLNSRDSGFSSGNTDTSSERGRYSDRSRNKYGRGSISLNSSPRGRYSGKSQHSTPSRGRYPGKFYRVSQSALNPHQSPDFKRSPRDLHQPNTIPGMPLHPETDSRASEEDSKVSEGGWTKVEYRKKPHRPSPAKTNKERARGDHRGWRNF", "sequence of UniProt P42681 (whole entry, looked up)": "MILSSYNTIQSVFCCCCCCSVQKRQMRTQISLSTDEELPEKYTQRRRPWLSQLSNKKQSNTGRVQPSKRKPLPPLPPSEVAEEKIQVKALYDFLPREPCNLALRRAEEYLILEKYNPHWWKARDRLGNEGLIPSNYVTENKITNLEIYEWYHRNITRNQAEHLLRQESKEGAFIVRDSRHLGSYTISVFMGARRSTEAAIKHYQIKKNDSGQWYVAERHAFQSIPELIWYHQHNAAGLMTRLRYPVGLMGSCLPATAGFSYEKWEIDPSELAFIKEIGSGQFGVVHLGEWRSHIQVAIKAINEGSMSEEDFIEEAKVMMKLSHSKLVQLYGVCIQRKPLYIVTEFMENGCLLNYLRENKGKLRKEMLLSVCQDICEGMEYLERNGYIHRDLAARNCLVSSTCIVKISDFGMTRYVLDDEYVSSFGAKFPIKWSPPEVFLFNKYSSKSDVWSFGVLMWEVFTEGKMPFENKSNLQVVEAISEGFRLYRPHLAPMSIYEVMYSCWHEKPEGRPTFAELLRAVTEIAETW", "sequence of UniProt Q6DT37 (whole entry, looked up)": "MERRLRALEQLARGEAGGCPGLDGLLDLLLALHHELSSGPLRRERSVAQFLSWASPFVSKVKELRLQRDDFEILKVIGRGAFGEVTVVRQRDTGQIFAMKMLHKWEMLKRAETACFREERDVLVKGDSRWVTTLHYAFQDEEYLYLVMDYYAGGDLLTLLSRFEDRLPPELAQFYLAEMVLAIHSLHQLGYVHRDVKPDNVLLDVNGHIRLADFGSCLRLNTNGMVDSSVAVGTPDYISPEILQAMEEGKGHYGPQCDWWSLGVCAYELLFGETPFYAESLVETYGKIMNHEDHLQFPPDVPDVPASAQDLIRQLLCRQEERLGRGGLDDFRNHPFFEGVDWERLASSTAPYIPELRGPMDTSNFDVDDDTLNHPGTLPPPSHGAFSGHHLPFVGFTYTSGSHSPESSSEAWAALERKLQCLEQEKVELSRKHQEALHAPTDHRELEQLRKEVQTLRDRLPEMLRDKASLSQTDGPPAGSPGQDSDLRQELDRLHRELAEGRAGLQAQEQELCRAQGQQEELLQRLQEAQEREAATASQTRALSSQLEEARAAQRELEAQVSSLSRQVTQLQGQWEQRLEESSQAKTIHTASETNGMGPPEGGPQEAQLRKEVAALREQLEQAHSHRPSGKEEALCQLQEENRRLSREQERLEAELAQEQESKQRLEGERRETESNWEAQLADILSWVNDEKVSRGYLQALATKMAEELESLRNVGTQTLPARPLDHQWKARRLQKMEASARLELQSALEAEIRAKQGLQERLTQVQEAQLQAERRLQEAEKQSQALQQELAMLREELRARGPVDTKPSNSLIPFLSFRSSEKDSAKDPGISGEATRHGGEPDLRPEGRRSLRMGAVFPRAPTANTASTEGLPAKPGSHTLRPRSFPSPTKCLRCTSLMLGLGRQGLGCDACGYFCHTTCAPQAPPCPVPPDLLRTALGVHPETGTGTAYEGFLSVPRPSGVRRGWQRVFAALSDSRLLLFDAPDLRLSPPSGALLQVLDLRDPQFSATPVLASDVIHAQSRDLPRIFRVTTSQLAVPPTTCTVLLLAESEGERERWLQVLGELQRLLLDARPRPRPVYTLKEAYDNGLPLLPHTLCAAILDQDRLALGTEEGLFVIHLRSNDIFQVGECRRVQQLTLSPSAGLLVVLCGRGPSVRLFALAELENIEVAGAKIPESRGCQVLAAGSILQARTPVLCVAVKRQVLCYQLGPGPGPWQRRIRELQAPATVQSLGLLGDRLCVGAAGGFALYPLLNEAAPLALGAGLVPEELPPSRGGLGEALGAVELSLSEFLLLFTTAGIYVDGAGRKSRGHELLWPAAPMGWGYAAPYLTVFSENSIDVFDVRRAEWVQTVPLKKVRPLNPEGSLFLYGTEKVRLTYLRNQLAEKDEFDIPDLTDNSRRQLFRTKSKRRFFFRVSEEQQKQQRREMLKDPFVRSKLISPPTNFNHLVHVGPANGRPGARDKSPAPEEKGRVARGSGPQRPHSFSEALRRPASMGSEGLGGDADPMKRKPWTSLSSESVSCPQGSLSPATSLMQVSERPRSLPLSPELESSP", "sequence of UniProt P51956 (whole entry, looked up)": "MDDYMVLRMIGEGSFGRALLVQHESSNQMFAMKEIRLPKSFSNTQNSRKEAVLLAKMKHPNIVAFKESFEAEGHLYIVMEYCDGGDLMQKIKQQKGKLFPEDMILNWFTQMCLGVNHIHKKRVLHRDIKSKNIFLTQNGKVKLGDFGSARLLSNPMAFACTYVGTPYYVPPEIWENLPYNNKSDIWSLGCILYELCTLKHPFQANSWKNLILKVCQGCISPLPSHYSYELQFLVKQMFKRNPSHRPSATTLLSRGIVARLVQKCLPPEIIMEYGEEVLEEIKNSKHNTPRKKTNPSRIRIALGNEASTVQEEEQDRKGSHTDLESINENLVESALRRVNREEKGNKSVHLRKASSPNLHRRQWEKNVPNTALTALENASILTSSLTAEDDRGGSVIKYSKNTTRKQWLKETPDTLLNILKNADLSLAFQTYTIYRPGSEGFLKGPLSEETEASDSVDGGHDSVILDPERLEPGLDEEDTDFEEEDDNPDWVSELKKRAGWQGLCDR", "sequence of UniProt P50750 (whole entry, looked up)": "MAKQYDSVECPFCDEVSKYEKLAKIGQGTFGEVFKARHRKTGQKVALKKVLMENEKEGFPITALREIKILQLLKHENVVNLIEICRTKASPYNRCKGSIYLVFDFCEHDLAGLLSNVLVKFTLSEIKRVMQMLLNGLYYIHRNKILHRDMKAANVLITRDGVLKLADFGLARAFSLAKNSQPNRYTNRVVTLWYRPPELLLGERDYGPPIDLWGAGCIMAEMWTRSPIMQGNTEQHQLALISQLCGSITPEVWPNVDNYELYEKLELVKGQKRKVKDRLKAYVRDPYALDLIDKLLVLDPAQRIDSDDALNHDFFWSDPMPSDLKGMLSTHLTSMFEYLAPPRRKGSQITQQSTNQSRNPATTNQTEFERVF"}
{"data": "Series 1", "SMILES": "COc1ccc(-c2c(Nc3ccccn3)[nH]c3c(C4=CCCCC4)c(-c4ccccc4)nn3c2=O)cc1", "matrix": "plasma", "route": "oral"}
{"technique": "LC-MS/MS", "species": "human", "dose": "200 mg twice daily", "time": "2 h", "plasma concentration, mean [ng/mL]": 13200}
{"species": "human patients", "dose": "100 mg once daily", "time": "3 h", "notes": "cycle 1", "plasma concentration, mean [ng/mL]": 4270}
{"species": "human patients", "dose": "150 mg once daily", "time": "0 h", "notes": "cycle 1", "plasma concentration, mean [ng/mL]": 4630}
{"technique": "LC-MS/MS", "species": "human", "dose": "200 mg twice daily", "time": "3 h", "notes": "single dose", "plasma concentration, mean [ng/mL]": 1580}
{"species": "human patients", "dose": "100 mg once daily", "time": "4 h", "notes": "cycle 1", "plasma concentration, mean [ng/mL]": 3860}
{"species": "cancer patients", "dose": "200 mg", "time": "0.5 h post-dose", "notes": "single dose", "plasma concentration, mean [ng/mL]": 135}
{"species": "cancer patients", "dose": "50 mg", "time": "0 h post-dose", "notes": "single dose", "plasma concentration, mean [ng/mL]": 0}
{"technique": "LC-MS/MS", "species": "human", "dose": "200 mg twice daily", "time": "3 h", "plasma concentration, mean [ng/mL]": 12400}
{"species": "cancer patients", "dose": "50 mg", "time": "2 h post-dose", "notes": "single dose", "plasma concentration, mean [ng/mL]": 360}
{"data": "Series 2", "SMILES": "COCCOc1nc(-c2ccc(Cl)nc2)nc2c1CN(C(=O)c1ncn3ccccc13)CC2", "concentration": "0.1 µM"}
{"target": "Serine/threonine-protein kinase PAK 6 (PAK6, Homo sapiens, UniProt Q9NQU5)", "read-out": "cell-free assay", "technique": "competition with immobilised ligand", "remaining binding [%]": 100}
{"target": "Interleukin-1 receptor-associated kinase 4 (IRAK4, Homo sapiens, UniProt Q9NWZ3)", "read-out": "cell-free assay", "technique": "competition with immobilised ligand", "remaining binding [%]": 100}
{"target": "Serine/threonine-protein kinase MRCK gamma (CDC42BPG, Homo sapiens, UniProt Q6DT37)", "technique": "competition binding", "remaining binding [%]": 100}
{"target": "5'-AMP-activated protein kinase catalytic subunit alpha-1 (PRKAA1, Homo sapiens, UniProt Q13131)", "read-out": "cell-free assay", "technique": "competition with immobilised ligand", "remaining binding [%]": 100}
{"target": "Receptor tyrosine-protein kinase erbB-4 (ERBB4, Homo sapiens, UniProt Q15303)", "read-out": "cell-free assay", "technique": "competition with immobilised ligand", "remaining binding [%]": 80}
{"target": "RAC-beta serine/threonine-protein kinase (AKT2, Homo sapiens, UniProt P31751)", "read-out": "cell-free assay", "technique": "competition with immobilised ligand", "remaining binding [%]": 100}
{"target": "Tyrosine-protein kinase FRK (FRK, Homo sapiens, UniProt P42685)", "read-out": "cell-free assay", "technique": "competition with immobilised ligand", "remaining binding [%]": 100}
{"target": "Casein kinase I isoform gamma-1 (CSNK1G1, Homo sapiens, UniProt Q9HCP0)", "read-out": "cell-free assay", "technique": "competition with immobilised ligand", "remaining binding [%]": 100}
{"target": "Ribosomal protein S6 kinase alpha-5, N-terminal kinase domain (RPS6KA5, Homo sapiens, UniProt O75582)", "read-out": "cell-free assay", "technique": "competition with immobilised ligand", "remaining binding [%]": 100}
{"target": "Serine/threonine-protein kinase Nek3 (NEK3, Homo sapiens, UniProt P51956)", "read-out": "cell-free assay", "technique": "competition with immobilised ligand", "remaining binding [%]": 100}
{"target": "Serine/threonine-protein kinase 36 (STK36, Homo sapiens, UniProt Q9NRP7)", "read-out": "cell-free assay", "technique": "competition with immobilised ligand", "remaining binding [%]": 79}
{"target": "Serine/threonine-protein kinase SBK1 (SBK1, Homo sapiens, UniProt Q52WX2)", "read-out": "cell-free assay", "technique": "competition with immobilised ligand", "remaining binding [%]": 100}
{"target": "Serine/threonine-protein kinase PLK2 (PLK2, Homo sapiens, UniProt Q9NYY3)", "read-out": "cell-free assay", "technique": "competition with immobilised ligand", "remaining binding [%]": 100}
{"target": "Mitogen-activated protein kinase kinase kinase 20 (MAP3K20, Homo sapiens, UniProt Q9NYL2)", "read-out": "cell-free assay", "technique": "competition with immobilised ligand", "remaining binding [%]": 100}
{"target": "Dual serine/threonine and tyrosine protein kinase (DSTYK, Homo sapiens, UniProt Q6XUX3)", "read-out": "cell-free assay", "technique": "competition with immobilised ligand", "remaining binding [%]": 100}
{"target": "Bone morphogenetic protein receptor type-2 (BMPR2, Homo sapiens, UniProt Q13873)", "read-out": "cell-free assay", "technique": "competition with immobilised ligand", "remaining binding [%]": 100}
{"target": "Megakaryocyte-associated tyrosine-protein kinase (MATK, Homo sapiens, UniProt P42679)", "read-out": "cell-free assay", "technique": "competition with immobilised ligand", "remaining binding [%]": 100}
{"target": "Non-receptor tyrosine-protein kinase TNK1 (TNK1, Homo sapiens, UniProt Q13470)", "read-out": "cell-free assay", "technique": "competition with immobilised ligand", "remaining binding [%]": 100}
{"data": "Series 3", "SMILES": "N#CC(c1ccnc(NCCc2cccnc2)n1)c1nc2ccccc2s1 (centres unmarked)", "read-out": "enzyme activity", "mode": "inhibitor", "concentration": "0.5 µM", "relative to": "control"}
{"target": "Misshapen-like kinase 1 (MINK1, Homo sapiens, UniProt Q8N4C8)", "remaining activity": "93.3%"}
{"target": "Serine/threonine-protein kinase MARK2 (MARK2, Homo sapiens, UniProt Q7KZI7)", "remaining activity": "97.9%"}
{"target": "Cyclin-dependent kinase 9, with cyclin K (CDK9, Homo sapiens, UniProt P50750)", "remaining activity": "26.6%"}
{"target": "Serine/threonine-protein kinase PAK 3 (PAK3, Homo sapiens, UniProt O75914)", "remaining activity": "102%"}
{"target": "Vascular endothelial growth factor receptor 2 (KDR, Homo sapiens, UniProt P35968)", "remaining activity": "99.7%"}
{"target": "Dual specificity protein kinase CLK3 (CLK3, Homo sapiens, UniProt P49761)", "remaining activity": "88.5%"}
{"target": "Rho-associated protein kinase 1 (ROCK1, Homo sapiens, UniProt Q13464)", "remaining activity": "93.2%"}
{"target": "G protein-coupled receptor kinase 4 (GRK4, Homo sapiens, UniProt P32298)", "remaining activity": "103%"}
{"target": "Serine/threonine-protein kinase tousled-like 2 (TLK2, Homo sapiens, UniProt Q86UE8)", "remaining activity": "102%"}
{"target": "Tyrosine-protein kinase TXK (TXK, Homo sapiens, UniProt P42681)", "remaining activity": "49.3%"}
{"target": "Serine/threonine-protein kinase MRCK beta (CDC42BPB, Homo sapiens, UniProt Q9Y5S2)", "remaining activity": "95.2%"}
{"target": "Discoidin domain-containing receptor 2 (DDR2, Homo sapiens, UniProt Q16832)", "remaining activity": "94.5%"}
{"target": "Calcium/calmodulin-dependent protein kinase type 1B (PNCK, Homo sapiens, UniProt Q6P2M8)", "remaining activity": "100%"}
{"target": "Dual specificity mitogen-activated protein kinase kinase 1 (MAP2K1, Homo sapiens, UniProt Q02750)", "remaining activity": "93.2%"}
{"data": "Series 4", "organism": "Plasmodium berghei", "mode": "inhibitor", "cell line": "Huh-7", "strain": "GFP-expressing sporozoites, liver stage", "concentration": "10 µM", "time": "24 h", "relative to": "untreated control"}
{"Compound": "CCCCNc1cc(C(=O)O)cc(S(N)(=O)=O)c1Oc1ccccc1", "infection rate [%]": 103}
{"Compound": "NS(=O)(=O)c1cc2c(cc1Cl)N=C(CSCc1ccccc1)NS2(=O)=O", "infection rate [%]": 92.9}
{"Compound": "Nc1c2ccccc2nc2ccccc12", "infection rate [%]": 16.6}
{"Compound": "CCn1cc(C(=O)O)c(=O)c2cc(F)c(N3CCNCC3)nc21", "infection rate [%]": 97.8}
{"Compound": "Cn1nnnc1SCC1=C(C(=O)O)N2C(=O)[C@@H](NC(=O)[C@H](O)c3ccccc3)[C@H]2SC1", "infection rate [%]": 91.6}
{"Compound": "COc1cc(NS(C)(=O)=O)ccc1Nc1c2ccccc2nc2ccccc12", "infection rate [%]": 94.4}
{"note": "A few entries again (series 1):"}
{"technique": "LC-MS/MS", "species": "human", "dose": "200 mg twice daily", "time": "3 h", "plasma concentration, mean [ng/mL]": 12400}
{"species": "cancer patients", "dose": "50 mg", "time": "0 h post-dose", "notes": "single dose", "plasma concentration, mean [ng/mL]": 0}
{"species": "human patients", "dose": "100 mg once daily", "time": "4 h", "notes": "cycle 1", "plasma concentration, mean [ng/mL]": 3860}
{"technique": "LC-MS/MS", "species": "human", "dose": "200 mg twice daily", "time": "3 h", "notes": "single dose", "plasma concentration, mean [ng/mL]": 1580}
{"species": "human patients", "dose": "100 mg once daily", "time": "3 h", "notes": "cycle 1", "plasma concentration, mean [ng/mL]": 4270}
